Measured values gathered from unrelated publications.
Parts stem from different laboratories: compare values within a part only. Positions count from the first letter of the parent shown.

Sample 1
Molecule: HNRNPDL (Homo sapiens, UniProt O14979)
Technique: cross-linking MS
Setting: hits only
For HNRNPL (Homo sapiens, UniProt P14866): interaction screen read “cross-linked”.
For VIM (Homo sapiens, UniProt P08670): interaction screen read “cross-linked”.
It gave “cross-linked” for interaction screen (HNRNPA1 (Homo sapiens, UniProt P09651)).
For HNRNPU (Homo sapiens, UniProt Q00839): interaction screen read “cross-linked”.

Sample 2
Target: RING finger protein unkempt homolog, zinc fingers 1-6, GST-SBP tag (UNK, Homo sapiens, UniProt Q9C0B0, residues 30-357)
Technique: RNA Bind-n-Seq
Molecule type: RNA
Matrix: in vitro
Concentration: not given
Setting: RNA with constant flanks, human and mouse sites, ends assumed
Baseline: input RNA pool
Reading: higher = stronger binding
All sequences stand within: GGGAGUUCUACAGUCCGACGAUC … CAACAGAGGAUUGAGCAUCA
Construct (chain): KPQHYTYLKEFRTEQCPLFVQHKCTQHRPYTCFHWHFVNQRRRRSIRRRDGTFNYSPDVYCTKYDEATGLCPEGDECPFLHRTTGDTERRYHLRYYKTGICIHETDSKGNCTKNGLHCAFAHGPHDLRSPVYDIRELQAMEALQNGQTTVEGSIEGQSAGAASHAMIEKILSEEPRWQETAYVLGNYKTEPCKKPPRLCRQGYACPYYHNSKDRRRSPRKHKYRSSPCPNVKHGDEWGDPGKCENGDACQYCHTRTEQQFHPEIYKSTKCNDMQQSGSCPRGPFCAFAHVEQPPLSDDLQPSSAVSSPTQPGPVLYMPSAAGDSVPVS
For `AUUCCUGAGGAUAAAAAAGUCAGAGUUCAGAGGACACAGAGCACUUUUGACCCAUUUGAGAAACCAGCUAAUCAAGUAAAGAGGGUGCAUUCUGAGAACAAUGCUUGCAUUAACUUUAAG`, the bound/input enrichment was 0.154 ratio.
The bound/input enrichment of `CGGGGGAUGAGUGACAGAGAGCGUCCUAUGCCUUGGAGACUGUCAUGGCAUAAGCUGUGCUAGCACCUCCUCAGGAAAUGAGAUUGAUUUUUACAACAGCCAAUAACGUUUGCACUUUAU` is reported as 0.0979 ratio.
The bound/input enrichment of `CCCCCACCUCCGCCCCUCCCCCCAGCCUCCCCCAUCAAAGCCCAGUUGGUGUCCCCGCCUGCCCCUCCAACCAAGGUGAAUCCAUCUGUGGUGCCACCUCCUCUACCCUGCGCACCUCCU` is reported as 1.32 ratio.
The bound/input enrichment of `GCUUUAAGUCUUUUGGGGAGCCAUAAGCCCUUGAUUCUACAGCAUGAGAACCUGGAAACCAUAGUGGACUUCAUAAAGAACACACUCCCCAACCUGGGCCUGGUGCAGAUGGAGAAGACC` is reported as 0.237 ratio.
`AUUCACAGAUUUAUUGUGAACACUCUGAAAGACGGAAGGAGAGUAGUUAUCUUGAUGGAAUUAGAAGUUUUGAAGUCAGCUGAAGCAGUUGGAGUGAAGAUUGGCAAUCCAGUGCCCUAU` gave a bound/input enrichment of 3.25 ratio.
`CGGUGGCGUUUGGAGCAGACGCGAAACUGGAUGGCUUCUACAGGGAGCCAGGCCUCUGAUAAAAACAAGAUUUUUGGAUUCUUCAAUGAUGGCGAACCCCCCACCAAAAAGCCCAGGAAG` has a bound/input enrichment of 0.274 ratio.
With `UGUUUGGAAGGAAUGAUUCUUGCAGCAAAAUCAGUUGAUGAAAGAAGAGACUCUCAAAUGGUGGUAGACUCCUUCAAAUCUGGUUUUGAACCUCCAGGAGACUUUCCAUUUGAAGAUUAC` the bound/input enrichment was 0.0703 ratio.
For `GCACCCCCUGGUCGCCCUGAGGCGCAGCCUCCUCCUCUCAGCUCUGAGCAUAAAGAGCCGGUAGCCGGGGACGCAGUGCCCGGGCCAAAGGAUGGCAGCGCCCCAGAGGUCCGAGGCGCU`, the bound/input enrichment was 0.0869 ratio.

Sample 3
Target: Sal-like protein 4, full length isoform A (SALL4, Homo sapiens, UniProt Q9UJQ4, residues 1-1053)
Chain of UniProt Q9UJQ4 (whole entry, looked up): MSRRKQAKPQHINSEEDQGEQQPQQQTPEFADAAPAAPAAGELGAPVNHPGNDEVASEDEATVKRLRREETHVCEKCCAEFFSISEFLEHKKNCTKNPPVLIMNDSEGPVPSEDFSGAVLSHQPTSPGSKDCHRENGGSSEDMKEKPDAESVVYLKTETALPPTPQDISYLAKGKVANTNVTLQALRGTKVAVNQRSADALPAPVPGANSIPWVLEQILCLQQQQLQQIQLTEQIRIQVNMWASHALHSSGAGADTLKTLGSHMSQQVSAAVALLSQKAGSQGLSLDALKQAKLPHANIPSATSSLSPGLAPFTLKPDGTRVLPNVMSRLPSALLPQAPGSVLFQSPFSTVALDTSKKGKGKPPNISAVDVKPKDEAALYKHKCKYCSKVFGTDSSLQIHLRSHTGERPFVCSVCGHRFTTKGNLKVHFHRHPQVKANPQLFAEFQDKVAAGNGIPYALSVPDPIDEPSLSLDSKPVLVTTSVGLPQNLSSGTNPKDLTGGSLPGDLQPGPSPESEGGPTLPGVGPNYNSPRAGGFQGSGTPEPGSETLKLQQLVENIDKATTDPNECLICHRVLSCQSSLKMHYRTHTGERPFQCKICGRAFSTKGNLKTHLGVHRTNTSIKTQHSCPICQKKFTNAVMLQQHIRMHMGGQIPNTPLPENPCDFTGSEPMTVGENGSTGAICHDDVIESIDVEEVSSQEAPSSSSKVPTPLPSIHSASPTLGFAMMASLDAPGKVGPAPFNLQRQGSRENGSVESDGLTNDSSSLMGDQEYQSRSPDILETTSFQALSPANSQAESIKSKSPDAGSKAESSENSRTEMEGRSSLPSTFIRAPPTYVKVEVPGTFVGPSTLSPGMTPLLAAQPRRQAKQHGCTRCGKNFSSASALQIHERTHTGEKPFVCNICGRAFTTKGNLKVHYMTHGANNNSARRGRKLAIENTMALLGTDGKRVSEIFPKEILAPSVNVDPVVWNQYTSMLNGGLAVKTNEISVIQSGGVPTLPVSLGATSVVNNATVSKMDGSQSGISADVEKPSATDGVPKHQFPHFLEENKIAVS
Technique: universal PBM
Molecule type: double-stranded DNA, one strand shown
Matrix: in vitro
Concentration: 600 nM
Setting: 8-mer, flanks averaged, mean of replicates
Reading: higher = stronger binding
`GCAGCACA` has an E-score of -0.182.
With `CGAGGCAC` the E-score was -0.251.
For `AAGACCTA`, the E-score was 0.0101.
For `GACCCACA`, the E-score was 0.00554.
For `GTTGCTCA`, the E-score was 0.0238.
`GCGTATCC` has an E-score of -0.259.
The E-score of `CGGGGATA` is reported as -0.246.
The E-score of `CGCTTTTC` is reported as -0.0232.

Other studies, line by line
Parent: PafA, mature enzyme, eGFP fusion (Elizabethkingia meningoseptica, UniProt Q9KJX5); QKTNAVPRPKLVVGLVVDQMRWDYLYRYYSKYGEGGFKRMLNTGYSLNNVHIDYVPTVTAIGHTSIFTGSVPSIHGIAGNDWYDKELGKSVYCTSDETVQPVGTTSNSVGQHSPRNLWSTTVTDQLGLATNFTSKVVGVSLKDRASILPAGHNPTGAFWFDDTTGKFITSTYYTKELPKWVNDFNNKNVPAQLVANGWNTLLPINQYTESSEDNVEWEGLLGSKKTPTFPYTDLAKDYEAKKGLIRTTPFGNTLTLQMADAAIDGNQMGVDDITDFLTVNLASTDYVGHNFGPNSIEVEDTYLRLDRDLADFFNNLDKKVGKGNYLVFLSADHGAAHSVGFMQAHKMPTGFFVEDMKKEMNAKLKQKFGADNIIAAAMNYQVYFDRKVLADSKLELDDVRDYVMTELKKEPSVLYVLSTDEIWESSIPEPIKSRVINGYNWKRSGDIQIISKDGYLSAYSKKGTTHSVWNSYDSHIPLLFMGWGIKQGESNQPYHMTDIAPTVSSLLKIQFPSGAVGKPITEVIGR
Under “phosphate dissociation constant”, `E97V` is recorded as 645 µM (inorganic phosphate, free oxyanion; microfluidic competitive inhibition; in vitro, cell-free expressed; not given, derived from inhibition constants, unchanged parent 615000 nM; lower = stronger binding).

Some of these lines once more (sample 2):
For `AUUCCUGAGGAUAAAAAAGUCAGAGUUCAGAGGACACAGAGCACUUUUGACCCAUUUGAGAAACCAGCUAAUCAAGUAAAGAGGGUGCAUUCUGAGAACAAUGCUUGCAUUAACUUUAAG`, the bound/input enrichment was 0.154 ratio.
The bound/input enrichment of `CGGGGGAUGAGUGACAGAGAGCGUCCUAUGCCUUGGAGACUGUCAUGGCAUAAGCUGUGCUAGCACCUCCUCAGGAAAUGAGAUUGAUUUUUACAACAGCCAAUAACGUUUGCACUUUAU` is reported as 0.0979 ratio.
The bound/input enrichment of `CCCCCACCUCCGCCCCUCCCCCCAGCCUCCCCCAUCAAAGCCCAGUUGGUGUCCCCGCCUGCCCCUCCAACCAAGGUGAAUCCAUCUGUGGUGCCACCUCCUCUACCCUGCGCACCUCCU` is reported as 1.32 ratio.
